Experimental data collected from several papers.
Numbered parts are unrelated; each lists some results of a single study.

Block 1
Target: Histone acetyltransferase KAT6A, both winged helices, GST fusion (KAT6A, Homo sapiens, UniProt Q92794, residues 1-181)
Technique: protein binding microarray
Form: double-stranded DNA, one strand shown
Sample: in vitro
Concentration: not given
Setting: 8-mer, flanks averaged, mean of 2 arrays, mostly near background
Relative to: not given
Direction: higher = stronger binding
Residues (chain): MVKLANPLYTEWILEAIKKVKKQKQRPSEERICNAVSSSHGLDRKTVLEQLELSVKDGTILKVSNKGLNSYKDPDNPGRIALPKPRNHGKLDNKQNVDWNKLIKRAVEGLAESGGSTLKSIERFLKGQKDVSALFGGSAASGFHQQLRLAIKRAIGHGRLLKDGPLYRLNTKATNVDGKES
| Oligonucleotide | E-score |
| --- | --- |
| GATTAAGC | -0.0676 |
| TCTGGCAA | -0.246 |
| GCGTAGAA | 0.0727 |
| CTATCTTC | -0.15 |
| GCTGCCAC | -0.00358 |
| GAACGCCC | 0.0456 |
| AGCAGAAA | -0.0982 |

Block 2
Target: Centromere-binding protein 1, full length, His-tagged (CBF1, Saccharomyces cerevisiae, UniProt P17106, residues 1-351)
Chain of UniProt P17106 (whole entry, looked up): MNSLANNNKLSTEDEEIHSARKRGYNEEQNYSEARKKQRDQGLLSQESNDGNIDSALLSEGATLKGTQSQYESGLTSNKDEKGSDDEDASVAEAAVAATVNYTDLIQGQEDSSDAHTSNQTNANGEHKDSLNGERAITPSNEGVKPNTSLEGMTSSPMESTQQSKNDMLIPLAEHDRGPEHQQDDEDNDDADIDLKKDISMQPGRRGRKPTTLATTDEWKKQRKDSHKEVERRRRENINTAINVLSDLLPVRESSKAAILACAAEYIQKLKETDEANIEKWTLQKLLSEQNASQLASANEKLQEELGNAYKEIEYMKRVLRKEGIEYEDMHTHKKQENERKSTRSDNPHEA
Technique: competition protein-binding microarray
Form: double-stranded DNA, one strand shown
Sample: in vitro
Concentration: 2 µM
Setting: whole 60-bp probe, lowest competitor level
Added: Pho4 competitor, 0.05 µM
Direction: higher = stronger binding
All sequences stand within: … GTCTTGATTCGCTTGACGCTGCTG
| Oligonucleotide | fluorescence intensity [a.u.] |
| --- | --- |
| GAGCTTCAATCCTGTCACAAATCCATTGCTTGTCTC | 65 |
| AATTCAAATGTGGACGTCGTGACTCGAAACAGCATA | 230 |
| TGCGCAACAACTTGGAAGGTGGGTGTATGTCTAGAA | 54.6 |
| CGTCCTAGTGATTGCAAAGTGGGTGCCATGAGGAAG | 75.1 |
| AAAGCGGTAATTTGCCTTGTGGGTGCAGATATCTAT | 86 |
| AAAGCGGTAATTTGTAGCGTGGGTGCAGATATCTAT | 85.8 |

Block 3
Target: Interferon regulatory factor 5, full length, phosphomimetic (IRF5, Homo sapiens, UniProt Q13568-2, residues 1-514, S451D/S453D/S456D/S462D)
Technique: protein-binding microarray
Form: double-stranded DNA, one strand shown
Sample: in vitro
Concentration: 940 nM top
Setting: 60-bp whole probe
Added: salmon DNA 0.4 mg/ml
Relative to: random background probes
Direction: higher = stronger binding
All sequences stand within: GCCTAGCAC … GTCTTGATTCGCTTGACGCTGCTG
| Oligonucleotide | fitted relative affinity [z-score] |
| --- | --- |
| TCATTTTTGGTAATAGTACTGTGCTAG | 0.319 |
| TTAGATATCGGGTATCGATTTGTGCTA | 2.82 |
| GACGATTTCGGGACTGGAGATGTGCTA | 0.338 |
| GACGGACTCGACTATCGGGACGTGCTA | -0.12 |
| GACGGTATCCTACTCCTGACGTGCTAG | 0.154 |
| TTAGATTTCAGGTCCGATTAGTGCTAG | 0.331 |
| TTAGAACTGAGTTTCGAGTAGTGCTAG | 3.38 |
| TCACTAGTGTTTTTCTCACTGTGCTAG | 0.414 |

Single results of other studies
| Molecule | target | test | system | setting | scale | measurement | result |
| --- | --- | --- | --- | --- | --- | --- | --- |
| PhoQ, residues 284 288 289 292 302 303 SIHMAM | PhoP, residues 12 14 15 18 19 LHHVQ (Escherichia coli, UniProt P23836) | Sort-seq, item: YFP reporter | E. coli | PhoQ-PhoP variant library, added: 10 µM Mg2+ | relative to: high Mg2+ state, higher = stronger signaling | fold induction | 1.39 |
